# Experimental data gathered from unrelated publications.
# Parts stem from different laboratories: compare values within a part only.
# Chain of UniProt O14578 (whole entry, looked up): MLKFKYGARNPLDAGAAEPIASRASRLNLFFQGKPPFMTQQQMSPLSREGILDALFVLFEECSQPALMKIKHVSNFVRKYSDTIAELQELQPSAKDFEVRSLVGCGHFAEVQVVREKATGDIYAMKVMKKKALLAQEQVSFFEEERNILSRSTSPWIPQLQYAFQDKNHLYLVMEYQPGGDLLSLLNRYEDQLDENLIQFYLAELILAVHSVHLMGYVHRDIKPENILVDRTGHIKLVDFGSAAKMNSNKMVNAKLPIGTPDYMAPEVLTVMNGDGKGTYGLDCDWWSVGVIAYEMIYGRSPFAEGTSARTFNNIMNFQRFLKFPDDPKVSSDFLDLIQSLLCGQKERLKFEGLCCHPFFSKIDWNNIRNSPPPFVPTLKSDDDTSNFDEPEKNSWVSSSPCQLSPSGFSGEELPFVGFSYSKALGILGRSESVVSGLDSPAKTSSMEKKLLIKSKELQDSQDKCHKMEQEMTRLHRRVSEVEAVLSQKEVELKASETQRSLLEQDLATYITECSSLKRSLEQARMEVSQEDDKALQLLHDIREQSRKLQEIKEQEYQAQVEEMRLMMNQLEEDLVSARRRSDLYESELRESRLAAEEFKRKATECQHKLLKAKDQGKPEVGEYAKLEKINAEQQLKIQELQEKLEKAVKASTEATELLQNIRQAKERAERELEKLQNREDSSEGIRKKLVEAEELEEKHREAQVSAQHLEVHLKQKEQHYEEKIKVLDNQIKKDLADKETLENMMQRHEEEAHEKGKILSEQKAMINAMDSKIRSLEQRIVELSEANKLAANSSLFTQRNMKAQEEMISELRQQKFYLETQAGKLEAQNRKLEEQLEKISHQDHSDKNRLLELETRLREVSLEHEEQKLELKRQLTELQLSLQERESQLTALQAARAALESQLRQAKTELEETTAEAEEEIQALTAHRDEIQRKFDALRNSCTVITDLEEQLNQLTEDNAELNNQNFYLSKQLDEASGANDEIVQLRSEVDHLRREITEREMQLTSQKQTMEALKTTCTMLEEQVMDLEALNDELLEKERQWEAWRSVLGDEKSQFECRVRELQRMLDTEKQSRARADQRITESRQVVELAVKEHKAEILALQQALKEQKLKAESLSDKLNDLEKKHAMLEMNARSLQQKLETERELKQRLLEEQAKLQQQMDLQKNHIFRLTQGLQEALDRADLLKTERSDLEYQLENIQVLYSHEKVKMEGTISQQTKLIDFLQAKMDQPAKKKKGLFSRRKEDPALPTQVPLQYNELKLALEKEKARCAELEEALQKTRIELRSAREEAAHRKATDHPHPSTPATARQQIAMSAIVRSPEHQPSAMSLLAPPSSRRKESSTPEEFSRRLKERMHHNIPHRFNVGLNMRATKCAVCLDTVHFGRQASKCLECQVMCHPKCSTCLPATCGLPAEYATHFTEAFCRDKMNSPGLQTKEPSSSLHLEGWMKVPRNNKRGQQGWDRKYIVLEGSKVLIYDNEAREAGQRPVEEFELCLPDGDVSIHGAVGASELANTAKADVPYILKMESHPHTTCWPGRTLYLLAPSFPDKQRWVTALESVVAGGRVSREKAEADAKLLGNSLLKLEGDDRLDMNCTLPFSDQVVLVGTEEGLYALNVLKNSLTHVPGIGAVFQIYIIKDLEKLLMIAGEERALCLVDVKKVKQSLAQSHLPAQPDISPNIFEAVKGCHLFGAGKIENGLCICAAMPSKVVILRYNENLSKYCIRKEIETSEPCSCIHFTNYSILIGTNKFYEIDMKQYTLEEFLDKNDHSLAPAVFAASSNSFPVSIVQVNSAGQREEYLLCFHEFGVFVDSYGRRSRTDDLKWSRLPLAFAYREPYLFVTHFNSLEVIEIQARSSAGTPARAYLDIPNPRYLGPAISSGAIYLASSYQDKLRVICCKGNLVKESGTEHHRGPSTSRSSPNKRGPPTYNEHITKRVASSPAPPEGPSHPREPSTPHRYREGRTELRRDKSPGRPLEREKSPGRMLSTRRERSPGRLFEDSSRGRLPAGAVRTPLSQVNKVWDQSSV
# Chain of UniProt Q9Y243 (whole entry, looked up): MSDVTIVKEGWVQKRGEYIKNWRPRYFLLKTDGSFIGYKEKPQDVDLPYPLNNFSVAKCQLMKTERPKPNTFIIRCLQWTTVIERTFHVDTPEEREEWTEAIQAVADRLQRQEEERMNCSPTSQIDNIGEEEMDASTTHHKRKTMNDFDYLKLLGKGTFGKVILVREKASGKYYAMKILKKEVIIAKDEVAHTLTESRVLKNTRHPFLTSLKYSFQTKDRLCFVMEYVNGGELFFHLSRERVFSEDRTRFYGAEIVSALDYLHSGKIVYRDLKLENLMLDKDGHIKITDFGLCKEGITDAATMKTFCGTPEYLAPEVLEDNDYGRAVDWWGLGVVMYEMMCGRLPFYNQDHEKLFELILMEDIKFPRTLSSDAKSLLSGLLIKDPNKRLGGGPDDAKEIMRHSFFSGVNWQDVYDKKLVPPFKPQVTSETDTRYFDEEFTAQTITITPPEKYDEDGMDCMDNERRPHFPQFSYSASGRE
# Chain of UniProt Q6PHR2 (whole entry, looked up): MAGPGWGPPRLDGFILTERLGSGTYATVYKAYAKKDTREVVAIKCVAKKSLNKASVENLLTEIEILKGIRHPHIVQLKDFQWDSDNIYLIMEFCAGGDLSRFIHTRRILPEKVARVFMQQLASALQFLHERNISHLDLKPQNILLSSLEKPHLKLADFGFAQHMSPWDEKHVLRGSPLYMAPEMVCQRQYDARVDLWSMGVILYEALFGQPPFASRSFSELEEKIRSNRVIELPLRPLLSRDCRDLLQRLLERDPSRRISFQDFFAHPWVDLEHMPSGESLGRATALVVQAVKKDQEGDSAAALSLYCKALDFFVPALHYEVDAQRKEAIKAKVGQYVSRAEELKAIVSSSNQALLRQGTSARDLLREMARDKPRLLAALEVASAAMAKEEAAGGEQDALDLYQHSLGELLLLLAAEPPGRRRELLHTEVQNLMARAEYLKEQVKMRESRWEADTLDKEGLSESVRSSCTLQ
# Chain of UniProt Q04759 (whole entry, looked up): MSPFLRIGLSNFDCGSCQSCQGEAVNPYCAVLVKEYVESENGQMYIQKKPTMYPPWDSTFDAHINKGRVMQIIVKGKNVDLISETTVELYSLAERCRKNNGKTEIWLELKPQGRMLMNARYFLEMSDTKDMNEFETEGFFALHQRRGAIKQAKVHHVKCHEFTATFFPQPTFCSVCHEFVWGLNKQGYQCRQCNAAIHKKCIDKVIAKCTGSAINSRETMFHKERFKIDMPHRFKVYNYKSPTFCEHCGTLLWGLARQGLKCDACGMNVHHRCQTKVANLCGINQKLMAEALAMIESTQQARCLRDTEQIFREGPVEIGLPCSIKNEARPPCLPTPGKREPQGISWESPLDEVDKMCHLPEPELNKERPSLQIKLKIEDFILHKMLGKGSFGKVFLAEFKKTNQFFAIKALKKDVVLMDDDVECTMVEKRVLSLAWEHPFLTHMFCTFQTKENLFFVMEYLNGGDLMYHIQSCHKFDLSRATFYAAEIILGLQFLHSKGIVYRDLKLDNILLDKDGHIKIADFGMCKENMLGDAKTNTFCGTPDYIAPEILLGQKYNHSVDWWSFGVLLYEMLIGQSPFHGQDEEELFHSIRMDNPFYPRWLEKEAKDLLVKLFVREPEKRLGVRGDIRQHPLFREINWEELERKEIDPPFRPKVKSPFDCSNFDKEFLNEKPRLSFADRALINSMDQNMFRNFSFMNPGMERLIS
# Chain of UniProt O14920 (whole entry, looked up): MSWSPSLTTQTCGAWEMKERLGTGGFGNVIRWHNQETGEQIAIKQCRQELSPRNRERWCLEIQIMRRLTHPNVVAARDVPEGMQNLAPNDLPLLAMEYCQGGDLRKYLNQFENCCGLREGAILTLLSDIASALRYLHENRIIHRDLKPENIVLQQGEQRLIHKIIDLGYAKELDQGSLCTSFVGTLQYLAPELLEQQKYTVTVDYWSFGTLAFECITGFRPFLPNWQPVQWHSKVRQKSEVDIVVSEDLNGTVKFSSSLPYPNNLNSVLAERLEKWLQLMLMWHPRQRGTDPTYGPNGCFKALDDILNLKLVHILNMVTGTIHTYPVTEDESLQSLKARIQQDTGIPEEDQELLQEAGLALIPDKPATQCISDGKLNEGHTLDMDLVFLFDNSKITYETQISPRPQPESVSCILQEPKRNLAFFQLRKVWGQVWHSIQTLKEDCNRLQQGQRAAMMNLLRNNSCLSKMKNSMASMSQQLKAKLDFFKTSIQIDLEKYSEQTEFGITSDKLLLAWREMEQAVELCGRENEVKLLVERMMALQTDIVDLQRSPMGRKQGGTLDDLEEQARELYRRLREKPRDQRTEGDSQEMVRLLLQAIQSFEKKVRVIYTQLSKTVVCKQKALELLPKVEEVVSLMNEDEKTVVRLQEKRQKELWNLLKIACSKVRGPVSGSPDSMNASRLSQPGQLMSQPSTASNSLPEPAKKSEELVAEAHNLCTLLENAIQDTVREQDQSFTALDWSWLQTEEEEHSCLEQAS

# Set 1 — tested at: 1 µM
# Structure (SMILES): Cc1c(C(=O)O)cc(-c2ccc(C3CCNCC3)cc2)c2ccc(-c3ccc(C(F)(F)F)cc3)cc12
target,test,remaining binding [%]
"Mitogen-activated protein kinase kinase kinase kinase 1 (MAP4K1, Homo sapiens, UniProt Q92918)","binding, competition with immobilised ligand",90
"Serine/threonine-protein kinase 16 (STK16, Homo sapiens, UniProt O75716)","binding, competition with immobilised ligand",100
"Tyrosine-protein kinase ABL1, phosphorylated (ABL1, Homo sapiens, UniProt P00519, F317L)","binding, competition with immobilised ligand",100
"Citron Rho-interacting kinase (CIT, Homo sapiens, UniProt O14578)","binding, competition with immobilised ligand",100
"Serine/threonine-protein kinase ULK3 (ULK3, Homo sapiens, UniProt Q6PHR2)","binding, competition with immobilised ligand",95
"Mitogen-activated protein kinase kinase kinase kinase 2 (MAP4K2, Homo sapiens, UniProt Q12851)","binding, competition with immobilised ligand",100
"Tyrosine-protein kinase ABL1, non-phosphorylated (ABL1, Homo sapiens, UniProt P00519, H396P)","binding, competition with immobilised ligand",72
"Platelet-derived growth factor receptor alpha (PDGFRA, Homo sapiens, UniProt P16234)","cell-free assay, competition with immobilised ligand",100
"Calcium/calmodulin-dependent protein kinase type IV (CAMK4, Homo sapiens, UniProt Q16566)","binding, competition with immobilised ligand",100
"Activin receptor type-1-like (ACVRL1, Homo sapiens, UniProt P37023)","binding, competition with immobilised ligand",100
"LIM domain kinase 2 (LIMK2, Homo sapiens, UniProt P53671)","binding, competition with immobilised ligand",100
"Dual specificity mitogen-activated protein kinase kinase 4 (MAP2K4, Homo sapiens, UniProt P45985)","binding, competition with immobilised ligand",100
"Protein kinase C theta type (PRKCQ, Homo sapiens, UniProt Q04759)","cell-free assay, competition with immobilised ligand",100
"5'-AMP-activated protein kinase catalytic subunit alpha-1 (PRKAA1, Homo sapiens, UniProt Q13131)","cell-free assay, competition with immobilised ligand",98
"RAC-gamma serine/threonine-protein kinase (AKT3, Homo sapiens, UniProt Q9Y243)","binding, competition with immobilised ligand",100
"Inhibitor of nuclear factor kappa-B kinase subunit beta (IKBKB, Homo sapiens, UniProt O14920)","cell-free assay, competition with immobilised ligand",100
"Serine/threonine-protein kinase MRCK gamma (CDC42BPG, Homo sapiens, UniProt Q6DT37)",competition binding,100

# Set 2 — method: phase 2a trial; host: idiopathic pulmonary fibrosis patients
# Compound: CC(C)n1cnc(-c2ccc(F)cc2)c1-c1ncc(C(=O)Nc2ccc(N3CCN(C)CC3)cc2)[nH]1
conditions,patients with eczema [%]
"60 mg once daily, grade 3 emergent event",0
"all arms pooled, grade 5 emergent event",0
"60 mg once daily, grade 4 emergent event",0

# Set 3 — observed: enzyme activity; action: inhibitor; tested at: 0.5 µM; reference: control
# Target: Aurora kinase B (AURKB, Homo sapiens, UniProt Q96GD4)
# Chain of UniProt Q96GD4 (whole entry, looked up): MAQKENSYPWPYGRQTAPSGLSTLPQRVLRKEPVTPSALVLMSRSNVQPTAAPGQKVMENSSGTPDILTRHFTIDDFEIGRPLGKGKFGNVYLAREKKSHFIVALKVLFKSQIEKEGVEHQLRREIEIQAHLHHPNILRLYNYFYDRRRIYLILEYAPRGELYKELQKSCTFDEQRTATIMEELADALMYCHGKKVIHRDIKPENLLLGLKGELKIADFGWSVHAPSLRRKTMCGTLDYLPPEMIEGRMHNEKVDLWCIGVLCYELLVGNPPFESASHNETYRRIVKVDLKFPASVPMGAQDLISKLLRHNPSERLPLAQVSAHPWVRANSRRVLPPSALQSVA
Structure (SMILES),remaining activity [%]
C[S+]([O-])c1ccc(-c2nc(-c3ccncc3)c(-c3ccc(F)cc3)[nH]2)cc1 (stereo not drawn),87.7
Cn1cc(/C=C2\C(=O)Nc3ccc(S(N)(=O)=O)cc32)c2ccccc21,10.5
CC(=O)O/N=C1/C(c2c(O)[nH]c3cc(Br)ccc23)=Nc2ccccc21,81
O=C1NC(=O)/C(=C/c2ccc3nccnc3c2)S1,101
COc1cc2ncnc(N3CCN(C(=O)Nc4ccc(Oc5ccccc5)cc4)CC3)c2cc1OC,76.1
COc1cc2ncc(-c3ccccc3)nc2cc1OC,74.4
CC(C)[C@H](CO)Nc1nc(Nc2cccc(Cl)c2)c2ncn(C(C)C)c2n1,97
CCOc1cc2ncnc(Nc3cccc(Br)c3)c2cc1OCC,91.9
Cc1ccc(NC(=O)c2ccc(CN3CCN(C)CC3)cc2)cc1Nc1nccc(-c2cccnc2)n1,97.2
CC(C)c1nn(-c2c(Cl)cccc2Cl)c2nc(Cc3ccc(OCCO)cc3)[nH]c(=O)c12,104
CCN1/C(=C/C(C)=O)Sc2ccc(OC)cc21,87.9
O=C(Nc1ccc(Cl)cc1)c1ccccc1NCc1ccncc1,77.7
COc1ccc(Cl)cc1NC(=O)Nc1cc(C)nc2ccccc12,95.9

# Set 4 — cell line: A-375; tested at: 100 µM; time: 36 h
SMILES,viability
C/C=C1\NC(=O)[C@H]2CSSCC/C=C/[C@H](CC(=O)N[C@H](C(C)C)C(=O)N2)OC(=O)[C@H](C(C)C)NC1=O,3.21%
CC(C)C[C@H](NC(=O)[C@H](Cc1ccccc1)NC(=O)c1cnccn1)B(O)O,5.36%
NC(=O)N1c2ccccc2C=Cc2ccccc21,83%
Cc1c(OCC(F)(F)F)ccnc1C[S+]([O-])c1nc2ccccc2[nH]1 (stereo not drawn),73.6%
C[N+](C)(C)CCOC(N)=O,112%
NCCC(O)(P(=O)(O)O)P(=O)(O)O,101%

# For quick reference, copied from above (set 1):
target,test,remaining binding [%]
"Serine/threonine-protein kinase ULK3 (ULK3, Homo sapiens, UniProt Q6PHR2)","binding, competition with immobilised ligand",95
"Mitogen-activated protein kinase kinase kinase kinase 2 (MAP4K2, Homo sapiens, UniProt Q12851)","binding, competition with immobilised ligand",100
